Results gathered from unrelated publications.
Numbered parts are unrelated; each lists some results of a single study. Changes are numbered by the printed parent chain.

Sample 1 — technique: protein binding microarray; form: double-stranded DNA, one strand shown; sample: in vitro; concentration: not given; baseline: not given; reading: higher = stronger binding; quantity: E-score
Target: Histone acetyltransferase KAT6A, both winged helices, GST fusion (KAT6A, Homo sapiens, UniProt Q92794, residues 1-181)
Setting: 8-mer, flanks averaged, mean of 2 arrays, mostly near background
Target sequence (chain): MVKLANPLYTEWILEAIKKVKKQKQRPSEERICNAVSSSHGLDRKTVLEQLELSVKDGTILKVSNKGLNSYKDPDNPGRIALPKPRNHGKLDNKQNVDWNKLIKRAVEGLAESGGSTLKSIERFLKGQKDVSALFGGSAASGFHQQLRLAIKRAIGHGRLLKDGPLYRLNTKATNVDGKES
ATGCCTCC: -0.0317
CACACGCA: 0.0302
TCTAACCA: -0.174
CACCTCCC: -0.0909
AATTGCCC: -0.0725
CTTCCAAA: -0.187
CTCGCAAA: -0.0964
GGAATCAA: 0.0966
AATAGGGC: -0.108
GCCCCTAC: -0.0971
GGTAAGCA: -0.159
CGCTTACC: 0.244
CCGTTGCA: 0.177
AATTATGT: 0.0632
AACGGTTA: 0.131
CTCCCCGC: 0.243
GGGGACCC: -0.0246
ATACATTA: 0.0371
CTGAGGTA: -0.232

Sample 2 — technique: RNA Bind-n-Seq; form: RNA; sample: in vitro; concentration: 365 nM; baseline: no-protein control; reading: higher = stronger binding; quantity: RBNS enrichment (R)
Target: RNA binding protein fox-1 homolog 2, RRM domain, GST-SBP tag (RBFOX2, Homo sapiens, UniProt O43251-10, residues 100-194)
Setting: natural RNA segment, single round, ends assumed
All sequences stand within: GGGAGUUCUACAGUCCGACGAUC … UGGAAUUCUCGGGUGCCAA
Residues (chain): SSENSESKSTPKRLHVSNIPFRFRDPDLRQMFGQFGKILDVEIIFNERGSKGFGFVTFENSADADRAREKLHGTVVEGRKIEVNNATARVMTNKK
AAUUUAGAGUUUUGAAGAAAUAGUCUCCCUUCAAUUAAGAAAUUUUCAUAAUGGAAUGAUUUAAAUUGAAGUGACAAAGAGUAUUAUUAAAAUACAAUGUUUAUACGUCU: 0.481
GUUCUCCCUCAGCCCACUAGCCAAGAGCUACCAGCGAUGCUCAGGGAAGGCUUGAGCUGGGGUCCUCCUCUGCGGAGCUUGGAGAAGGUACCCAUCCUGGUCCUAUGCUG: 0.404
UAUUGAGGCCAGAGGAGCAAGUGUGCUUCUUCCUUGUCCUUGUCCCAUCAUUGAGACCUUCAUCUACAGUUUCCAAACAGUCAUUGGAAAACGCACGACAGUUACCCAGA: 1.73
UUCCGUUGUCAGCUUCUCCCCCUUCAGCCUGUUUCUGCAGCAGCCAGGGUUCUCCCCCCUACACCCUCUGCAGGUGGAGAGAGAGAAGCUGGGCCCAGCCGGGCCGUGCC: 4
CUUGAAUGCUGGUGUCUGUUAGAAUGCUUCUGACUACAGAUGUAAUUAAAGGCUUUUCUUACUAUGUUUUAACCAAAGAUGUGGAGCAAUCCAAGCCGCAUAUCUACUGC: 0.515
GCCAGGCAGUUGCAGCUGAUGAUGUAAAUAUUUUGUACAGUAGAUAAAUAAAUGUUUAAAAGAACUAGGAGUGAGUGGCUGCUUUAAAUGGAGAUUCAUGGCUUGACUGG: 0.994
ACAUGGACGCAACCUCAACCCAGCGCAGUUACAACUUCACUAUCAGCGGAAGGGGAGAAAAACCGAUUCAAAUCAACUUGUACAUGGAAACAGCAAGCAUUAUGGUCAAA: 0.343
UUGCCUGGACUGCUGGAAACACUAGGUCUCCUGUGCGUGUGUGGAAAGGUAAUAGUGGCACAAUGUUGCUAACUUUAGACAACUUUUAAUAAAUAUGGUUUCGUAAAGAA: 1.13
GAAUUGUAACAUAGCAUGACAAAUUUUGUGUUGACUUGAAAGGAAUCACACCAUUAUUCCUUAGAAGUAAUUACAUGUGUUCUAACACAUUUGAGACAGGGUUGGACUCC: 11.5
CAUUUUGGUGUGCCCAUUCCUUCUUUUCCUGAACUCACAGUCUUGGGGUGUUUCUGCACUUGGCUAUGUGUGUCUUGUCUGAUGUCUGUCUUCUGUAGCUUUGCCUCUAU: 0.417
GGAAGAGGGUCUGCUGGGGGUUCCUGUGGCCUUCCGCUGUGUCUGGACAACACUAACACAGGACCCUUGUUGCUACCUGGUUCUGACUCCAGACAACCACAAUGCCAGGU: 0.399
AGGACCACAGUGAACAAGAGCACUUCCAAUCCCAUGCAGAGGGCAAGAGGCAGAAUCCACCAAAGGCCUUGAACUACCCAUGCUGGGGAAAAGCAUAAAGGGCUGCCUAG: 1.53

Sample 3 — technique: RNA Bind-n-Seq; form: RNA; sample: in vitro; concentration: not given; baseline: input RNA pool; reading: higher = stronger binding; quantity: bound/input enrichment
Target: RING finger protein unkempt homolog, zinc fingers 1-6, GST-SBP tag (UNK, Homo sapiens, UniProt Q9C0B0, residues 30-357)
Sequence of UniProt Q9C0B0 (30-357, looked up): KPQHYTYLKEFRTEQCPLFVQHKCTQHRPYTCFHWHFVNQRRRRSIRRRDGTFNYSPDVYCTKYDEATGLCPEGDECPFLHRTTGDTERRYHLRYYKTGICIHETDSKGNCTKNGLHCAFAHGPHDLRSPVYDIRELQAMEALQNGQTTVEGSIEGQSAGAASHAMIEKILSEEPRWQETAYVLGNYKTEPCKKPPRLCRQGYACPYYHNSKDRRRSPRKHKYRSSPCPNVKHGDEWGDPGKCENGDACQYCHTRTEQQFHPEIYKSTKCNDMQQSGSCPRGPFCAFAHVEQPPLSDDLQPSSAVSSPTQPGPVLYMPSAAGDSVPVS
Setting: RNA with constant flanks, human and mouse sites, ends assumed
All sequences stand within: GGGAGUUCUACAGUCCGACGAUC … CAACAGAGGAUUGAGCAUCA
CUUUUUCUUUUUCUUUUUUUUUUUAAUAAAAAGGUUGAACUGUUUUUUUUUUCUUUUUGGUAUUAAGUCCAUCUUGUGUUGGUACAUUGGCAGAAACAUAUGCUUUAAAACUUAACUAUU: 0.825 ratio
GUUACAUAAGUCAGGAGCUUUCUCAGUUCUGAAAAAGGAGCAUGACUGUGUCUGCACAGAAAGAACCACUUCUAGGGAAAUUGACAGUGAGACAAAGCUGAAACCACUCUCUGUAGUGCG: 0.393 ratio
ACGUGCUGCCAGCUGAGAGACUACCUGUCCGCCGGAGCAGAAACCUUCCUGCUGCGACUUUAUAGGAAAACUUUUGAGAAGGAUGGCAAAGCUGAAGAAGUGUGGGUAAAUGUUAGAAAG: 0.714 ratio
AUUAAGCAAAGGACCAAGUUGGAGCUUAAAGCCAAGGAUUUACAAGAUGAGCUGGCGGGCAACAGUGAACAGCGGAAACGUUUAUUAAAAGAGAGGCAGAAGCUGCUUGAAAAAAUAGAA: 0.335 ratio
GCUAAACAGGAAAUUCUUGAAAACAAAGAUGUGGUUGUUCAACAUGUUCAUUUUGAUGGACUUGGAAGGACUAAAGAUGAUAUCAUCAUUUGUGAAAUUGGAGAUGUUUUCAAGGCCAAA: 0.177 ratio
GUUGAAAAUUAUUGCCGUCAUUAUUUACAUACUUAAGACAUAUUAGCAAGUUGAUCCAAAAUGGGAGGCCUUAUAGAUGUGCUUGGGGGAAAAUGAAGGGGAGAAAGUAGCCAUACAGGA: 1.42 ratio
GAUAGAAAAUACCACCUAAAGACAUACAGACAAUGCUGUGUGGGAACUGAACUGGUGGACUGGAUGAUGCAGCAGACACCAUGUGUUCACUCCCGGACUCAAGCUGUUGGCAUGUGGCAA: 0.363 ratio
UUGUCACCUGCUUUCCACCAAGCACUACUCUCUUUUUGUCGAAUGUCAGCAGAUAGUCGGUUAGGAUCAGAGGUGUCUAGGAUUGCAGACAGUGAAAAAAGUGUUAUGUUAAUGCUGGGA: 0.155 ratio
ACUGAGCAGAAUGAAGAGUUGAGUAUCUUAUAUCCAGCUGCCAUUGUGACUAUUGAUGGAUUUAGCCUUUUUCAAUCUCUUCGUGCUUGUCGAAAUCAGGUAGCAAAAGCUGCAGCAUCA: 0.27 ratio
GCCACCAUGAAAACCUUCUGUGGUACCCCGGAGUACUUGGCGCCUGAGGUGCUAGAGGACAAUGACUAUGGGCGAGCAGUGGACUGGUGGGGGCUGGGUGUGGUCAUGUAUGAGAUGAUG: 0.487 ratio
CUGGCACACUCCGAGGAGCCGCUCACCAUCUUCAGCGGAGCCCUGCUCUACGAGGACACAGAGCUUGAACAGGUGUAGACAGGGUGGACCCGACCACCAAACUUAUCUACAGGGGCCGCA: 0.182 ratio

Sample 4 — technique: DHFR PCA, deep sequencing; sample: yeast; added: (+)-ABA 0.11 µM; baseline: wild-type fitted maximum; reading: higher = stronger binding; quantity: relative binding score
Target: ABI1, truncated, D143A, DHFR fusion (Arabidopsis thaliana)
Setting: methotrexate growth selection, single substitutions
Starting sequence: PYL1, truncated, DHFR fusion (Arabidopsis thaliana); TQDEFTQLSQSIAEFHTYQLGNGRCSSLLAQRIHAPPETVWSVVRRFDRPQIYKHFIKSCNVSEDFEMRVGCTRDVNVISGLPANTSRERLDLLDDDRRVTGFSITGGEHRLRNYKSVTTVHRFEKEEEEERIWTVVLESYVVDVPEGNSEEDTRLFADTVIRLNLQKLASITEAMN
P83H: 10.9%
L29Y: -1.73%
A170G: 2.5%
S9P: 5.83%
L112F: 10.8%
A30Q: 7.81%
S80K: 1.07%
V142W: -6.9%
S42T: 1.76%
G148R: -0.662%
I162H: -1.12%
L169W: -3.89%
V100K: -1.74%
D153G: 2.62%
E67Y: 8.32%
L28E: 5.04%
A13Q: 38.7%
C72L: 0.96%
K116D: -1.16%
P146W: -5.39%
Q10F: 2.38%
M68G: 0.591%

Sample 5 — target: CCNE1, cyclin fold, Cln2 fusion (human); technique: yeast growth competition, sequencing; sample: yeast; setting: weak parent motif; baseline: not given; reading: higher = stronger binding; quantity: normalised enrichment score
Starting sequence: LLGL2 docking peptide (human); KSLKKSLRQSFRR
K5A: 0.841
L7A: -0.319
K4A: 0.948
F11A: -0.129
S10A: 0.258
R13A: 0.826

Sample 6 — target: NFE2, bZIP domain (human); technique: DHFR protein complementation; sample: yeast; baseline: wild-type JUN-FOS pair; reading: higher = stronger binding; quantity: binding fitness
Setting: single substitutions, most at no-binding floor
Starting sequence: JUN, bZIP domain (human); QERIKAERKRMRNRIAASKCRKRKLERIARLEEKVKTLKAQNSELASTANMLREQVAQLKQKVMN; partner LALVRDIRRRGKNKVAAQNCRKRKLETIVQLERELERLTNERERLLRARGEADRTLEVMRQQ
E54M: -1.5 natural log
N42S: -1.55 natural log
Q55S: -1.48 natural log
A57H: -1.53 natural log
E32V: -1.31 natural log
L38V: -1.28 natural log
L31R: -1.38 natural log
Q41P: -1.51 natural log
A29M: -1.37 natural log
L31I: -1.26 natural log
K39N: -1.41 natural log
R53S: -1.47 natural log
L45N: -1.54 natural log

Some of these lines once more (sample 2):
UAUUGAGGCCAGAGGAGCAAGUGUGCUUCUUCCUUGUCCUUGUCCCAUCAUUGAGACCUUCAUCUACAGUUUCCAAACAGUCAUUGGAAAACGCACGACAGUUACCCAGA: 1.73
UUCCGUUGUCAGCUUCUCCCCCUUCAGCCUGUUUCUGCAGCAGCCAGGGUUCUCCCCCCUACACCCUCUGCAGGUGGAGAGAGAGAAGCUGGGCCCAGCCGGGCCGUGCC: 4
CUUGAAUGCUGGUGUCUGUUAGAAUGCUUCUGACUACAGAUGUAAUUAAAGGCUUUUCUUACUAUGUUUUAACCAAAGAUGUGGAGCAAUCCAAGCCGCAUAUCUACUGC: 0.515
GCCAGGCAGUUGCAGCUGAUGAUGUAAAUAUUUUGUACAGUAGAUAAAUAAAUGUUUAAAAGAACUAGGAGUGAGUGGCUGCUUUAAAUGGAGAUUCAUGGCUUGACUGG: 0.994
ACAUGGACGCAACCUCAACCCAGCGCAGUUACAACUUCACUAUCAGCGGAAGGGGAGAAAAACCGAUUCAAAUCAACUUGUACAUGGAAACAGCAAGCAUUAUGGUCAAA: 0.343
UUGCCUGGACUGCUGGAAACACUAGGUCUCCUGUGCGUGUGUGGAAAGGUAAUAGUGGCACAAUGUUGCUAACUUUAGACAACUUUUAAUAAAUAUGGUUUCGUAAAGAA: 1.13
GAAUUGUAACAUAGCAUGACAAAUUUUGUGUUGACUUGAAAGGAAUCACACCAUUAUUCCUUAGAAGUAAUUACAUGUGUUCUAACACAUUUGAGACAGGGUUGGACUCC: 11.5
CAUUUUGGUGUGCCCAUUCCUUCUUUUCCUGAACUCACAGUCUUGGGGUGUUUCUGCACUUGGCUAUGUGUGUCUUGUCUGAUGUCUGUCUUCUGUAGCUUUGCCUCUAU: 0.417
GGAAGAGGGUCUGCUGGGGGUUCCUGUGGCCUUCCGCUGUGUCUGGACAACACUAACACAGGACCCUUGUUGCUACCUGGUUCUGACUCCAGACAACCACAAUGCCAGGU: 0.399
AGGACCACAGUGAACAAGAGCACUUCCAAUCCCAUGCAGAGGGCAAGAGGCAGAAUCCACCAAAGGCCUUGAACUACCCAUGCUGGGGAAAAGCAUAAAGGGCUGCCUAG: 1.53
